Published values collected from several papers.
Lines come from different studies, so protocols differ. Values joined by “and” are separate records of one study, mostly repeats; a detail may differ. Where no end group is shown, it is not given here.
B1: side-chain stapled; chain CIITRPC (also: sidechain bridge or staple (positions not given here))

Molecule | assay | system | setting | how to read | measurement | value
Tetramethylrhodamine biocytin | – | mouse JIMT1-BR brain metastasis model, brain macrometastases | intravenous, 10 min | relative to: uninvolved brain | increase in mean fluorescence intensity | 73.2%
microperoxidase-8 | – | butanol-pyridine-acetic acid | 2183 transfers | – | partition coefficient | 0.2
DPDPE | RP-HPLC | HALO RP-amide column | 25 µM, formic acid/methanol, 25 min gradient | – | retention time | 16.1 min
benzalkonium chloride | – | zebrafish larvae | 5 µM, intact compound, not light-degraded | – | mortality | ~80%
aspterric acid | – | Arabidopsis thaliana Col-0 seeds | 25 µg/mL, seed germination | – | hypocotyl length | 0.049 cm
heparin sodium | – | healthy Chinese adult volunteers | continuous intravenous infusion, 8 IU/kg/h, 5 days | – | decreased white blood cells | 100%
B1 | LC-MS | PBS | 200 µM, up to 7 days, pH 7.4, room temperature | – | stability | no effect
insulin human | measured: NIT2 mRNA | EcoHIV-infected mouse, brain | i.p., dose not given | relative to: PBS | fold change | 1.14
ILGTILGLLKGLOH | – | peptide, mouse red blood cells | concentration not given | – | minimal haemolytic concentration | inactive
QAKTFLDKFNHEAEDLFYQ | circular dichroism | peptide, water/TFE 1:1 v/v | 200 µM, 25 °C | – | random coil content | 0%
YISPQYYGETWVTTIG | circular dichroism | peptide, water with 5% DMSO | 500 µM, 18 °C | – | random coil content | 90%
Ac-GIGKFIHAVKKWGKTFIGEIAKS-NH2 (N-acetyl, C-amide) | RP-HPLC | peptide | – | – | retention time | 20.9 min
TLILGKLGIGLL | – | peptide, mouse red blood cells | concentration not given | – | minimal haemolytic concentration | inactive
MEASGVNYQNMNKQTT | circular dichroism | peptide, water with 5% DMSO | 500 µM, 18 °C | – | random coil content | 79%
Ac-RRWFWR-NH2 (N-acetyl, C-amide) | RP-HPLC | peptide | – | – | retention time | 16.6 min
GWTLNSAGYLLGPHAVDNHRSFNDKHGFT-NH2 (C-amide) | – | peptide, healthy male mice | ip, 3 µM | – | colon length | 9 cm and 8.2 cm and 9.1 cm and 8.5 cm
FTMSPPLQMPSKNY | circular dichroism | peptide, water with 5% DMSO | 500 µM, 18 °C | – | alpha-helix content | 4%
Polymyxin B | – | mouse | intraperitoneal, 40 mg/kg single dose, day 1 | – | survival | 0%

Repeated from above:
Molecule | assay | system | setting | how to read | measurement | value
DPDPE | RP-HPLC | HALO RP-amide column | 25 µM, formic acid/methanol, 25 min gradient | – | retention time | 16.1 min
benzalkonium chloride | – | zebrafish larvae | 5 µM, intact compound, not light-degraded | – | mortality | ~80%
